Results of several laboratories.
Protocols differ between the studies behind these lines. Values after ≈ are worked out from the molar mass of the structure shown.

Substance	organism	test	test system	setting	MIC
CC(C)(C)OCC1NC(=O)C(C(=O)NC(C(=O)NC2C(=O)N3C2SC(C)(C)C3C(=O)O)c2ccccc2)=C1O (stereo not shown)	Escherichia coli	broth microdilution	BW25113, Mueller-Hinton broth		50 µg/mL (≈ 89.2 µM)
Cc1ccc(S(=O)(=O)N2C(=O)CSC2c2cccc(Cl)c2)cc1 (stereo not shown)	Lacticaseibacillus casei	broth microdilution	NCIM 2651		16 µg/mL (≈ 43.5 µM)
CC1(C)SC2C(NC(=O)C(NC(=O)C3=C(O)CN(c4ccccc4)C3=O)c3ccccc3)C(=O)N2C1C(=O)O (stereo not shown)	Escherichia coli	broth microdilution	BW25113, Mueller-Hinton broth	18 h, without clavulanic acid	12.5 µg/mL
N#Cc1ccc(COc2ccc(C#Cc3ccc(C(F)(F)[C@](O)(Cn4cnnn4)c4ccc(F)cc4F)nc3)cc2)cc1	Acanthamoeba castellanii	parasite growth, resazurin		96 h	0.045 µg/mL (≈ 0.077 µM)
pneumocandin A0	Candida albicans	broth microdilution, resazurin	ATCC 10231	24 h, 35 °C	0.8 µg/mL
CC1(C)SC2C(NC(=O)C(NC(=O)C3=C(O)CNC3=O)c3ccccc3)C(=O)N2C1C(=O)O (stereo not shown)	Escherichia coli	broth microdilution	BW25113, Mueller-Hinton broth	18 h, without clavulanic acid	200 µg/mL
LSTFFRLFN	Streptococcus sanguinis	broth microdilution	peptide, ATCC 49295	24 h, 37 °C, planktonic, anaerobic	> 256 µg/mL
pneumocandin B0	Candida albicans	broth microdilution, resazurin	ATCC 10231	24 h, 35 °C	0.8 µg/mL
Cc1ccc(S(=O)(=O)N2C(=O)CSC2c2ccccc2Br)cc1 (stereo not shown)	Lacticaseibacillus casei	broth microdilution	NCIM 2651		64 µg/mL (≈ 155 µM)
CC(C)(C)Oc1ccc(CC2NC(=O)C(C(=O)NC(C(=O)NC3C(=O)N4C3SC(C)(C)C4C(=O)O)c3ccccc3)=C2O)cc1 (stereo not shown)	Escherichia coli	broth microdilution	BW25113, Mueller-Hinton broth	added: CCCP 50 µg/mL	12.5 µg/mL (≈ 19.6 µM)
Cc1ccc(S(=O)(=O)N2C(=O)CSC2c2ccccc2O)cc1 (stereo not shown)	Lacticaseibacillus casei	broth microdilution	NCIM 2651		64 µg/mL (≈ 183 µM)
OC(Cn1cncn1)(Cn1cncn1)c1ccc(F)cc1F	Acanthamoeba castellanii	parasite growth, resazurin		96 h	> 64 µg/mL
CC1(C)S[C@@H]2[C@H](NC(=O)[C@H](N)c3ccccc3)C(=O)N2[C@H]1C(=O)O	Streptococcus mutans	serial dilution	ATCC 25175	24 h, 37 °C	5 µg/mL (≈ 14.3 µM)
Cc1ccc(S(=O)(=O)N2C(=O)CSC2c2ccc(O)cc2)cc1 (stereo not shown)	Lacticaseibacillus casei	broth microdilution	NCIM 2651		16 µg/mL (≈ 45.8 µM)
CC1NC(=O)C(C(=O)NC(C(=O)NC2C(=O)N3C2SC(C)(C)C3C(=O)O)c2ccccc2)=C1O (stereo not shown)	Escherichia coli	broth microdilution	BW25113, Mueller-Hinton broth		200 µg/mL (≈ 409 µM)
Cc1ccc(S(=O)(=O)N2C(=O)CSC2c2ccccc2Cl)cc1 (stereo not shown)	Lacticaseibacillus casei	broth microdilution	NCIM 2651		16 µg/mL (≈ 43.5 µM)
OB(O)O	Serratia marcescens	broth macrodilution	clinical isolate	added: zinc borate 9%	0.375%
Cc1ccc(S(=O)(=O)N2C(=O)CSC2c2cccc(C)c2)cc1 (stereo not shown)	Lacticaseibacillus casei	broth microdilution	NCIM 2651		64 µg/mL (≈ 184 µM)
CC(C)C1NC(=O)C(C(=O)NC(C(=O)NC2C(=O)N3C2SC(C)(C)C3C(=O)O)c2ccccc2)=C1O (stereo not shown)	Escherichia coli	broth microdilution	BW25113, Mueller-Hinton broth		100 µg/mL (≈ 194 µM)

Some of these lines once more:
Substance	organism	test	test system	setting	MIC
N#Cc1ccc(COc2ccc(C#Cc3ccc(C(F)(F)[C@](O)(Cn4cnnn4)c4ccc(F)cc4F)nc3)cc2)cc1	Acanthamoeba castellanii	parasite growth, resazurin		96 h	0.045 µg/mL (≈ 0.077 µM)
pneumocandin B0	Candida albicans	broth microdilution, resazurin	ATCC 10231	24 h, 35 °C	0.8 µg/mL
